Measured values pooled from the literature.
Every numbered part comes from another study and shows a few of its results, in no order. Changes are numbered by the printed parent chain.

Series 1
Target: RING finger protein unkempt homolog, zinc fingers 1-6, GST-SBP tag (UNK, Homo sapiens, UniProt Q9C0B0, residues 30-357)
UniProt Q9C0B0, sequence (30-357, looked up): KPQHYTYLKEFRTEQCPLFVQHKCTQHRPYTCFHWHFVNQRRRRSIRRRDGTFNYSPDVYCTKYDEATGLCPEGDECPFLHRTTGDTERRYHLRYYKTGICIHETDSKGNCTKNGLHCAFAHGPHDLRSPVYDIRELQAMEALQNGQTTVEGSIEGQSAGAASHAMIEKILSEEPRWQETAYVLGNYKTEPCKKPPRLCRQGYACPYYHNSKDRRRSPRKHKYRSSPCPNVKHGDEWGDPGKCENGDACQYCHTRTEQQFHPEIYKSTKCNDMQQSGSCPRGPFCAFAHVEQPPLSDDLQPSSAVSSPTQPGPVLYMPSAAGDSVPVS
Method: RNA Bind-n-Seq
Molecule type: RNA
Matrix: in vitro
Concentration: not given
Notes: RNA with constant flanks, human and mouse sites, ends assumed
Reference: input RNA pool
Reading: higher = stronger binding
Measurement: bound/input enrichment
All sequences stand within: GGGAGUUCUACAGUCCGACGAUC … CAACAGAGGAUUGAGCAUCA
Strand = AGCAAAGUAGAAAACUUCAUUCAAAAGCAAGAAAAACGGAUAUUUACAAACUUCCAUCGCCAGCUUUUUUGUUGGAUUGACAAGUGGAUCGAUCUCACGAUGGAAGACAUUAGGAGAAUG; value = 2.04 ratio
Strand = CAACUCUUUGGGGAUGAUGAAACUGCUUUUGGUUACAAGGGUCUAAAGAUCCUGUUAUACUAUAUUGCUGGUAGCCUGUCAACAAUGUUCCGUGUUGAAUAUGCAUCUAAAGUUGAUGAG; value = 0.149 ratio
Strand = GGAGGUCAGGUUCCUGACACAAACUACAUAUUUAUGGGUGAUUUUGUAGACAGAGGUUACUAUAGUUUGGAGACCUUCACUUACCUUCUUGCAUUAAAGGCUAAAUGGCCUGAUCGUAUU; value = 0.499 ratio
Strand = AGAGUCGACACAAUUUUGGAAUUUUCUCAGAAUAUGAAUACGAAAUACUAUGGACUACAAAUUUUGGAAAAUGUGAUAAAAACAAGGUGGAAGAUUCUUCCAAGGAACCAGUGCGAAGGA; value = 0.331 ratio
Strand = ACAGUUUUCAAAAGUUCUUAAAGGCAAGAGUGAAUUUCUGUGGAUUUUACUGGUCCCAGCUUUUAGGUUCUUUAAGACACUAACAGGACUACAUAGAGGCUUUUUCAGCAUUACUGUGUC; value = 0.285 ratio
Strand = GGCAGUGUCCACCCCUCUGAUGUGUUGGAUAUGCCUGUGGAUCCCAACGAACCCACAUAUUGCCUUUGUCACCAGGUCUCCUAUGGAGAGAUGAUUGGCUGUGACAACCCGGAUUGUUCC; value = 0.214 ratio
Strand = GAUGGACGUGGAGAAAGGCAAGAUUGAAGACACUGGAGGCAGUGGCGGCUCCUAUUCCAUCAAAACCCAGUUUAACUCGGAGGAGCAGUGGACAAAAGCGCUCAAGUUCAUGCUGACCAA; value = 0.139 ratio
Strand = GUUCCUGCUUUAAUUUUUGGACAGCUUUUAACAUCCAGUAACUAUGAUGAUGAUGAGAAAAAAGUUACAGGUGGUCGUAAUGGUUAUGGUGCAAAACUUUGUAAUAUUUUCAGUACAAAG; value = 0.363 ratio
Strand = UACAGAGGAAGGGGUAGAGGGUAUUAUCAAGGAGGAGGAGGGAGAUACCAUCGAGGUGGCUAUAGACCUGUCUGGAAUAGAAGGCACUCUAGGAGUCCUAGACGAGGUCGGUCACGGUCC; value = 0.347 ratio
Strand = UAAAAUUGGGGGUGGGGGGAGGGUUGACAUUUUCCGACUGCCUGUUACGUGCCAAGUGCUUUUUGUUAAGGACAUAAUGUUUUUGACUGGGGAUCAUGUUUGGCUGAUGUAAAUAUUAAU; value = 0.285 ratio
Strand = ACAGAGCCCCCCUACACAGCAUACGUAGGAAAUCUACCUUUCAAUACGGUUCAGGGCGACAUAGAUGCUAUCUUUAAGGAUCUCAGCAUAAGGAGUGUACGGCUAGUCAGAGACAAAGAC; value = 0.237 ratio

Series 2
Target: RNA binding protein fox-1 homolog 2, RRM domain, GST-SBP tag (RBFOX2, Homo sapiens, UniProt O43251-10, residues 100-194)
Method: RNA Bind-n-Seq
Molecule type: RNA
Matrix: in vitro
Concentration: 365 nM
Notes: natural RNA segment, single round, ends assumed
Reference: no-protein control
Reading: higher = stronger binding
Measurement: RBNS enrichment (R)
All sequences stand within: GGGAGUUCUACAGUCCGACGAUC … UGGAAUUCUCGGGUGCCAA
Target sequence (chain): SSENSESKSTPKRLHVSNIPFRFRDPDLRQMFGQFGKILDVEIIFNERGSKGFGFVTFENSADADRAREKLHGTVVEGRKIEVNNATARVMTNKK
Strand = UCCUUGUGAAAUUCUGCUGAUUGUGCCCUACCCUUUGCACCUGACUUUUCCUAGUUGUCCUGGUGCUAAAAUGGAAGCUACACCUUGAUCUCUCCUGGCAUGAAAAUAAA; value = 1.25
Strand = CGUCUCUGCUAAAAAUACAAAAAAUUAGCCAGAUGUGGUGGUGCACACCUGUAGUCCCAACUAUUCGGCAGGCUGAGGCAGUAGAAUCGCUUGAACCUGGGAGGCGGAGA; value = 0.392
Strand = CCUUAUGCACGGAACUGUUUCUGAGUGCCAAGCACAGAAAGCCGCUAAAUAAAAUCUUUGCAAUUGUUUUCUGUGUGUUUGUUCAUAUAGAAAAAUUAAGUAUUGUUUUC; value = 0.649
Strand = AAGAACAUGAAGAGAACAGAAUCACUUGAAAAUGGAUGCCAGUCAUCUCUUGUUCCCACUACUGAAUUCUUAUAAAGUGGUGGCAAGAUAGGGAAGGGAUAAUCUGAGAA; value = 0.522
Strand = AAUUUCAUGGUUGUACUUCUUAGAUUUAAUUUCUAGGCCAACACGUUAUCUUAAGGUGCAGUUUUAAGGUUCAGGCAUGCGCUCUGGCUCAUAGUGUUUGAAAGUGAUGU; value = 0.673
Strand = GCUUGGAUAUAAAAUCACUGAGCUGUUUCCGGUUCUCUCUAAGUUUGGGAAUCCUAUGUGUAUUUAGUUCUGACUAGUCGUUUGAGGUCUCGGUGGCAGAGCCUGGCUAG; value = 0.703
Strand = CCAACACUACUGGCUCUUGCUUUUCUCAAUCCCCAAAGCUUCCCUUGUGACUUCUUAAGGCUCUGUAUGAAUUUGGAAGUAUAUGUUGAUAUUGCCAUGCAUGGUCAUUC; value = 4.73
Strand = GGAGCUAUUUUCUUUUUUGUGCAUAUAGAUAUUUCUUAAAUGAAGCUGCUUUCUUGUCUUUUAUUUCUAAAAGCCCCCUUAUACCCCACUUUGUGCAGCAAAGAUCCCCG; value = 1.29
Strand = UUCUACUCUCAGAACUGCCCCAGUGCUUGCUGGGUAGACUUUUCAUCUAAGACAGUGGAUUUUUCAAAAAGACCUUUUUUCUAUUGUUUGAGAAAAAUCAUUGUUUCUUG; value = 0.504
Strand = CUGCUCGUUCUUAAAAAGGUAAAACUAAGAUUUAGAAACAAGGCAGGCCUUAGAGCCGAGGGAGACUAUUAGGCAGCAGGCCAAACCACUCUGGCCCUGGAGCCGCCUUU; value = 0.297
Strand = CAUUAGUGGUAACUGGUUUAAAAAACAAAGACUGUAAGCCUGUGUGUGCCACUGUUUGCUUCAACAGUAUAUCCUAAUAAGCCUCACCUAUUUAAUCCAAUGAGUUUUAA; value = 0.491
Strand = GGGUAGUAGCCUUGUUAUUUGACUUAACUUGGUGGGGACAUGAAUAAAGGUCAAAGGUUGCACCGUGUGUGGCAGCUUCCUGUCUUUACUGGCCUACCUUGGCUGUGAGC; value = 0.377

Series 3
Target: CCNE2, cyclin fold, Cln2 fusion (human)
Method: yeast growth competition, sequencing
Matrix: yeast
Notes: weak parent motif
Reference: not given
Reading: higher = stronger binding
Measurement: normalised enrichment score
Parent: RB1 docking peptide (human); PKPLKKLRFDIEG; partner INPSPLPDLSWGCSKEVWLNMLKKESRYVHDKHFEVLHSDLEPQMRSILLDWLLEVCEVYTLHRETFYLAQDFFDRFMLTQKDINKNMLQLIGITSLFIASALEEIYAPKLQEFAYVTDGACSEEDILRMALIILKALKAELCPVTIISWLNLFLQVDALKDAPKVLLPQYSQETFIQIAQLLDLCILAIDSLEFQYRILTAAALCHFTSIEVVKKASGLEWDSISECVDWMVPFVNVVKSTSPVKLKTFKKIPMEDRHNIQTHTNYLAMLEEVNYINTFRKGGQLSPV
Substitution = LKPLKKLRFDIEG [P1L]; value = 0.566
Substitution = PTPLKKLRFDIEG [K2T]; value = 0.0539
Substitution = PKPLSKLRFDIEG [K5S]; value = 1.25
Substitution = PKPLKKLRFDICG [E12C]; value = 0.843
Substitution = PIPLKKLRFDIEG [K2I]; value = 1.91
Substitution = PKPLDKLRFDIEG [K5D]; value = 0.0759
Substitution = PHPLKKLRFDIEG [K2H]; value = 0.876
Substitution = PKPLKKLRFLIEG [D10L]; value = 0.749
Substitution = PKPLKKHRFDIEG [L7H]; value = 0.636
Substitution = KKPLKKLRFDIEG [P1K]; value = 0.181
Substitution = PKPLKKKRFDIEG [L7K]; value = 1.27
Substitution = PKPLKNLRFDIEG [K6N]; value = 0.129
Substitution = PKPLKKLRFFIEG [D10F]; value = 0.787
Substitution = PYPLKKLRFDIEG [K2Y]; value = 0.982
Substitution = PKPLKKYRFDIEG [L7Y]; value = -0.0524

Single results of other studies
Substance = PhoQ, residues 284 288 289 292 302 303 AGGLSV; target = PhoP, residues 12 14 15 18 19 STWGI (Escherichia coli, UniProt P23836); assay = Sort-seq, refers to: YFP reporter; system = E. coli; setting = PhoQ-PhoP variant library, with: 10 µM Mg2+; scale = reference: high Mg2+ state, higher = stronger signaling; measurement = fold induction; value = 0.426

Excerpt of the above (series 3):
Substitution = LKPLKKLRFDIEG [P1L]; value = 0.566
Substitution = PKPLKKHRFDIEG [L7H]; value = 0.636
Substitution = PKPLKNLRFDIEG [K6N]; value = 0.129
Substitution = PKPLKKKRFDIEG [L7K]; value = 1.27
